Results of several laboratories.
Parts stem from different laboratories: compare values within a part only.

Set 1
Target: RNA binding protein fox-1 homolog 2, RRM domain, GST-SBP tag (RBFOX2, Homo sapiens, UniProt O43251-10, residues 100-194)
Technique: RNA Bind-n-Seq
Form: RNA
Matrix: in vitro
Tested at: 365 nM
Notes: natural RNA segment, single round, ends assumed
Relative to: no-protein control
Direction: higher = stronger binding
Residues (chain): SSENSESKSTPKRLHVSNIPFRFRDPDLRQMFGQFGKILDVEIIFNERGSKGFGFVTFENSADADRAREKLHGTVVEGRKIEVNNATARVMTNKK
Strand	RBNS enrichment (R)
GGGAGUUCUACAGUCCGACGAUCCUUUGCCUGUAGGAUGUACUGUAUGUAGUCAUGCACUUUGUAUUAAUAUAUUAGAAAUCUACAGAUCUGUUUUGUACUUUUUAUACUGUUGGAUACUUAUAAUCAAAACUUGGAAUUCUCGGGUGCCAA	30.5
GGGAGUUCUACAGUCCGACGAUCCACCUCUGCCUGGAAGAGCUUGGACCAGAAACGACCUCCUCCUCUCUGUGUGUUGGAGGGAGAGGAGCUGGGCACUGUUUUGAUGUGGAGGGGAUGUUGUUCUGAGUUGAUGGAAUUCUCGGGUGCCAA	1.65
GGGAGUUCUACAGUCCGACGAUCGAUAACUUGGGAUUUCUUGAUAGUCCUUCACCCCUGAAACCCCGUAUUUACUUAACAAGAUUUAGCUCUUAGUUCUUCAAGUAAAAUUAAAGUCUCUUGUGUAAGAGCCAUGGAAUUCUCGGGUGCCAA	0.428
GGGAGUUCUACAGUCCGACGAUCGAUCGAGACUUCAGUUUCCAAUGUGUGGGGAGUCAGACCAGAAUAGAUACAGGUACUUUGAAACCACUAACCCUUCUUUACACGGGGCACAUAGGCCAGUCCGAGUUCUUUGGAAUUCUCGGGUGCCAA	0.432
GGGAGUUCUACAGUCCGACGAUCAGCCCAGCAGUAGUUGGAGAGGCAGGCAGAGGGCAGUGGUUCUCCCAAAUAGGAGACCUGGGGCCUGGCCAGGCCAGGGUUUGGGCCUAAUGGCUUUGACUAAAUUACCCUGGAAUUCUCGGGUGCCAA	0.316
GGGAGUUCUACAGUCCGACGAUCAAAUUCGUUUGUCUUCAAUAUAGUUUGAAGAUUAGUCAUUCCAUGAAGGAACAGCCUCUUGAGCUGGGUAUGGUGGCACCCAUCUGUGAGUCCAGCAUUUGGGUAUUGAGUGGAAUUCUCGGGUGCCAA	0.764
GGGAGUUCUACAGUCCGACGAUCGCCAGCCCAGGGGCCUUUACCAUGUUCUCUCCACAUCCGUAAAUAAACUUCCUUCACUACACUGUAAUCUGUGAGCAUGCUUCCUCUGCCCUGGCCUCUCUUGGGCCAAGUGGAAUUCUCGGGUGCCAA	1.35
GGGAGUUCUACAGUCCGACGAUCUCCCUCCACAGACAAUGUCCUCUGUUCAAUUCCUAACGCAAACUACAAUAAAUGGUGACACACGUUCAGAAGAAAUCUUCUUUGAGUCUCUUCUCUUUUGUGGAAAAAAAUGGAAUUCUCGGGUGCCAA	0.452
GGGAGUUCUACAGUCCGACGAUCAAAAGUUAAACUAUGAUGCUUAAAUAUGUUUCUCUGCCUUAUUUUAUAAGUGUGUGAUAAUAGAUAGCAGAGAGAUUAUUUGGGAGGGGCAGAGACAAUAAGGCCACAGCUGGAAUUCUCGGGUGCCAA	1.12

Set 2
Target: Fragile X messenger ribonucleoprotein 1, C-terminal low-complexity region (Fmr1, Mus musculus, UniProt P35922)
Technique: RNA Bind-n-Seq
Form: RNA
Matrix: in vitro
Tested at: 200 nM
Notes: whole 134-nt RNA, ends assumed
Together with: 150 mM LiCl
Relative to: input library
Direction: higher = stronger binding
Library: 7-deaza-guanosine replaces G
Strand	log2 enrichment
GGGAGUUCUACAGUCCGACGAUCUCCUCAAGUCCUGUGCUACACAUCGUAUGUACCGAAUCGGGGAGGGAGGAGGAAAGUAUUAUGUUACGCCGUUCGGAUCUGCACUUCCAGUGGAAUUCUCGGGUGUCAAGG	-1.22
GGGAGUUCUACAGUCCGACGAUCCCUCAAGUCCUGUGCUACACAUCGUAUGUACCGAAUCGGAAGGAAGGAAGGGGAAAGUAUUAUGUUACGCCGUUCGGAUCUGCACUUCCAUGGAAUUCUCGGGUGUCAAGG	-0.929
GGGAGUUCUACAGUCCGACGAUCUAACUUUAGAGGAGGAUCUGAUGAAUAUGGCAGUGGACGUGGAUUUGGGGAUGGCUAUAAUGGGUAUGGAGGAGGACCUGGAGGUGGCAAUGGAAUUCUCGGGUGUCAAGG	-0.0263
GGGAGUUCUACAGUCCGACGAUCUGUGCUACACAUCGUAUGUACCGAAUCGGGGAAAAAAAGGGGAAAAAAAGGGGAAAAAAAGGAAAGUAUUAUGUUACGCCGUUCGGAUCUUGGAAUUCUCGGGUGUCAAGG	0.797
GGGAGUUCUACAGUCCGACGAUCCAAGUCCUGUGCUACACAUCGUAUGUACCGAAUCGGGGUGGGGUUUGGGGAGGGGAAAGUAUUAUGUUACGCCGUUCGGAUCUGCACUUCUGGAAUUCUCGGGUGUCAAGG	-0.26
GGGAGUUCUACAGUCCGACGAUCACCAUGCAGGUGGGCAUCUUUGGGAAGUGGGGCAAGGGGGGGAUAGGGAGGGGGGUAACACUUUGGGUACAGGUGGUCCCAGGUCGUUUCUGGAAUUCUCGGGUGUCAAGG	1.54
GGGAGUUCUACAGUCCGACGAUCCUCAAGUCCUGUGCUACACAUCGUAUGUACCGAAUCGGGGUUGGGUUGGUUGGAAAGUAUUAUGUUACGCCGUUCGGAUCUGCACUUCCAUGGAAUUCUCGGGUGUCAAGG	0.0678
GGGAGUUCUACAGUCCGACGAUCAAGUCCUGUGCUACACAUCGUAUGUACCGAAUCGGGUUUGGGAAAAAAAGGGAGGGAAAGUAUUAUGUUACGCCGUUCGGAUCUGCACUUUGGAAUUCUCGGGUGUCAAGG	-0.808
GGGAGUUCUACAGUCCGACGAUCUGGCCCUGGUGGCAUGCGGGGAGGAAGAGGUGGCCUCAUGGAUCGUGGUGGUCCCGGUGGAAUGUUCAGAGAUGGCCGUGGUGGAGACAGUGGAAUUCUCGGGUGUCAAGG	-0.355
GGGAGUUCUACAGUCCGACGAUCGCAGGAAGUAAAAACAAAUGGAAAUGCUUCGGAUAGUGGCAGGGGUGGGGGUUGCUAAGGAAAGGGUGGGAUGGGAGUGGGUUAAGAGUUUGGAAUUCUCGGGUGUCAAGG	1.67
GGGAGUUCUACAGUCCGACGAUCUGGCCCUGGUGGCAUGCGGGGAGGAAGAGGUGGCCUCAUGGAUCGUGGUGGUCCCGGUGGAAUGUUUAGAGGUGGCCGUGGUGGAGACAGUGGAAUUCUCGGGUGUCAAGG	-0.0245

Set 3
Target: RING finger protein unkempt homolog, zinc fingers 1-6, GST-SBP tag (UNK, Homo sapiens, UniProt Q9C0B0, residues 30-357)
Technique: RNA Bind-n-Seq
Form: RNA
Matrix: in vitro
Tested at: not given
Notes: RNA with constant flanks, human and mouse sites, ends assumed
Relative to: input RNA pool
Direction: higher = stronger binding
Construct (chain): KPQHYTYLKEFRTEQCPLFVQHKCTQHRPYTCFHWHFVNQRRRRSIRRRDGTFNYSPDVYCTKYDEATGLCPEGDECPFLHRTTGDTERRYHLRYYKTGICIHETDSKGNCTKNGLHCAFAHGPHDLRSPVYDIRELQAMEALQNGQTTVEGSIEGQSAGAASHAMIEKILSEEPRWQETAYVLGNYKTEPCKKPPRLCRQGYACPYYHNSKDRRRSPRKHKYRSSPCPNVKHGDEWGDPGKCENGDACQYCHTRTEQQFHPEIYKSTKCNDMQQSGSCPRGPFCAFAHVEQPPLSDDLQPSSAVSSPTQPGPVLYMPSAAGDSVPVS
Strand	bound/input enrichment [ratio]
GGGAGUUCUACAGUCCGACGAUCACAAAAAUCAAGAAAAUGUUUCUCACCUCUCAGUUUCUUCUGCUUCACCAACAUCGUCCGUAGCAUCAGCUGCAGGAAGUGUAACAAGCUCUAGUCUUCAGAAAUCUCCUACGCUGCUCACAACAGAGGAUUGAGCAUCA	0.271
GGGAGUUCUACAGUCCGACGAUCUUUGUAAACUGAAAUUCUGUAUGUGUAAGAGAUGUUUAAAUAUGUUUGGGUCCUAAACAGCUUUUUAAAAUUAUACUUGGGAAUAAAUUCAGCAUCUUUUCAAAUAAACUCUAUGAAAGACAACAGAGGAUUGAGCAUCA	0.281
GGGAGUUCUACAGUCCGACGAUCGCAACAAGUGAAGAAGAAGCUAAAUUUGGUGCCAGACGCUUAGCCCGUAGUCUGCAGAAACUAGGUUUUCAGGUAAUAUUUACAGAUUUUAAGGUUGUUAACGUUCUGGCAGUGUGUAACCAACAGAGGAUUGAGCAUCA	1.38
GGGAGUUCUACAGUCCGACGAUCGUUGUGUUUUGUUUUUGUUUCCUUUUGUUUAUGUUUUGGCCUUUCCUCUUUGUCUUUCCAUGUAGACCAGAUAUUUGAAAGGGCAGACGAUGGCUAGAGGUGUAAUGUGCAGCUUGUUUACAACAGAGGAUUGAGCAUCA	0.565
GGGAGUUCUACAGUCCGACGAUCCCUCAGAUGGUGUCUGCUAUUGUACGUACCAUGCAGAAUACAAAUGAUGUAGAAACAGCUCGUUGUACCGCUGGGACCUUGCAUAACCUUUCCCAUCAUCGUGAGGGCUUACUGGCCAUCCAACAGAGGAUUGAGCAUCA	0.153
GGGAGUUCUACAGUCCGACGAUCACCUGGGGCAUUCAGCCAGCGCCCAUGCCUGUGCCUGUGUGGGUGAUCAUUUUAGCAGUUCUAGCAGGAUUGUUGCUACUGGCUGUUUUGGUAUUUGUAAUGUACAGGAUGGGCUUUUUUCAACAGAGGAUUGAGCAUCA	0.374
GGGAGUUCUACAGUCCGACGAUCUGUGUAUGUACUGGCAGUAUUAAAUUUAUUCAUCAAGAAUGCUUAGUUCAGUGGUUGAAACAUAGUCGGAAAGAAUACUGUGAAUUAUGCAAGCACAGAUUUGCUUUCACACCAAUUUAUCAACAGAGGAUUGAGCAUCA	1.01
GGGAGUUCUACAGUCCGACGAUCGAGAGGGAUGGUGGGACCAGUUACUCUCCACAAGAAAAUUCACACAACCACAGUGCUCUUCAUAGUUCAAAUUCACAUUCUUCUAAUCCAAGCAAUAACCCAAGCAAAACUUCAGAUGCACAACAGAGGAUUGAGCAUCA	1.73
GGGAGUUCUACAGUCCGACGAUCUGCACAGGCCUCACAGUGCGUCUGGCCGGCGCUUUAUAGCUGCAGCCUGGGCGGCUCCGCUAGCUGUUUUUCGUCUUCCCUAGGCUAUUUCUGCCGGGCGCUCCGCGAAGAUGCAGCUCACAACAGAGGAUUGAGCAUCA	0.134
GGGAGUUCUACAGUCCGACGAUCAAUUUUCCUUUCAUAUAAAAACUGAUCUCCCCUCCUCCCAUAAAUAUUUUUACUUCAAGGACUAGGACCAGUUUGUUUUGGGCCCUUAUGUGAAAAUUUGUCUCGUUUAAGAGGCAUCUUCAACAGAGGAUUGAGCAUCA	0.245
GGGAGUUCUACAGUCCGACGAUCUUGCGGAAAGCCCAAGGGCAGAGCAUACUUGAAGUCCUGAGGAUAAUUCAGUAUUGCACAGAAUCCCUCGGGCAGCCUCACUGCUUCCACCCACCGUAUAUACUUUUCCUACUGGAACUUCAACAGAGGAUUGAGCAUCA	0.0839

Set 4
Target: Histone acetyltransferase KAT6A, winged helix 1, GST fusion (KAT6A, Homo sapiens, UniProt Q92794, residues 1-85)
Technique: protein binding microarray
Form: double-stranded DNA, one strand shown
Matrix: in vitro
Tested at: not given
Notes: 8-mer, flanks averaged, mean of 2 arrays, mostly near background
Relative to: not given
Direction: higher = stronger binding
Target sequence (chain): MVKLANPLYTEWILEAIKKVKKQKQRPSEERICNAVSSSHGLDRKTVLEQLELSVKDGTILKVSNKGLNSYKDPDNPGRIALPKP
Strand	E-score
GCCCCGGA	0.235
AGGACCCA	-0.274
AGACCGCT	0.213
AACTGGGG	-0.287
GAGTAATA	0.0145
CTACTCAG	-0.144
CCTAACGC	0.202
GAGAGCTA	-0.0664
CTAGCTCC	0.0581
CAGACAGA	-0.279
GAGACGCC	0.215
CGCAAGTA	0.157
GCAGGTCA	-0.055
AGATATTC	-0.335
AGACTAAA	-0.0587
CGTATTAG	0.077
ACCCGTGA	0.307

Some of these lines once more (set 2):
Strand	log2 enrichment
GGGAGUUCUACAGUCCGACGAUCUGUGCUACACAUCGUAUGUACCGAAUCGGGGAAAAAAAGGGGAAAAAAAGGGGAAAAAAAGGAAAGUAUUAUGUUACGCCGUUCGGAUCUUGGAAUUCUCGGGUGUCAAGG	0.797
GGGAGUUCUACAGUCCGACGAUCCAAGUCCUGUGCUACACAUCGUAUGUACCGAAUCGGGGUGGGGUUUGGGGAGGGGAAAGUAUUAUGUUACGCCGUUCGGAUCUGCACUUCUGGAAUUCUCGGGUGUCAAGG	-0.26
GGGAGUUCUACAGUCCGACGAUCACCAUGCAGGUGGGCAUCUUUGGGAAGUGGGGCAAGGGGGGGAUAGGGAGGGGGGUAACACUUUGGGUACAGGUGGUCCCAGGUCGUUUCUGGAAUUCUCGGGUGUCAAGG	1.54
